Results collected from several papers.
Each line is one published result; not all experiments were run side by side. Values joined by “and” are separate records of one study, mostly repeats; a detail may differ. ± marks the error that the study gave.
PAK3: Serine/threonine-protein kinase PAK 3 (PAK3, Homo sapiens, UniProt O75914)
TOP2A: DNA topoisomerase 2-alpha (TOP2A, Homo sapiens, UniProt P11388)
ZBTB11/CRBN: ZBTB11/CRBN (Homo sapiens, UniProt O95625+Q96SW2)

C#Cc1cc(-c2cc(Nc3nc(N[C@@H](C)c4ccc(F)cn4)ncc3Cl)n[nH]2)ccc1C=O
inhibition (PAK3; enzyme activity, inhibitor; 0.2 µM): 2.6%

O=c1cc(-c2ccccc2)nc2cc(-c3ccco3)[nH]n12
koff (Flavin reductase (NADPH) (BLVRB, Homo sapiens, UniProt P30043); binding): 0.0308 s⁻¹

COc1cc(-c2cc(C(C)=O)n3ccccc23)c(OC)cc1Cn1ccnc1
ΔTm (Transcription initiation factor TFIID subunit 1 (TAF1, Homo sapiens, UniProt P21675)): 1 °C

O=C(C[C@@H](C(F)F)n1ccc(F)n1)N1CCC(O)(Cn2cnc3c(cnn3-c3ccc(F)cc3)c2=O)CC1
binding enthalpy (Ubiquitin carboxyl-terminal hydrolase 7 (USP7, Homo sapiens, UniProt Q93009, V517A); isothermal titration calorimetry; concentration not given, USP7 V517A): -15.7 ± 0.368 kcal/mol

CCOc1ccc(NC(=O)O[C@@H](Cn2nc(C(C)C)cc2C(C)C)C(C)C)cc1
potentiation of ACh response (Neuronal acetylcholine receptor; alpha4/beta4 (Homo sapiens, UniProt P30926+P43681); two-electrode voltage clamp; Xenopus oocytes; concentration not given, with: ACh 3 µM): ~15 fold

Nc1nc2c(ncn2[C@@H]2O[C@H](COP(=O)(O)O)[C@@H](O)[C@H]2O)c(=O)[nH]1
Km (GUK1 (Homo sapiens, UniProt Q16774); substrate, NADH-coupled; NaCl 10 mM, with: ATP 2.5 mM): 45.5 µM

COc1cc(O)c2c(c1)oc(=O)c1c3cc(O)c(O)cc3oc21
α-Helix content (Alpha-glucosidase MAL12 (MAL12, Saccharomyces cerevisiae S288c, UniProt P53341); circular dichroism; molar ratio 1:2): 20.1%

NCCCS(=O)(=O)O
normalised MST signal (Sodium- and chloride-dependent taurine transporter (SLC6A6, Homo sapiens, UniProt P31641, G62A); binding, microscale thermophoresis; 7.81 µM, room temperature, with: 50 nM labelled protein; higher = more binding): 0.0119

CC(=O)N[C@H](C(=O)N1C[C@H](O)C[C@H]1C(=O)NCc1ccc(-c2scnc2C)cc1)C(C)(C)SCCCCCCNC(=O)C[C@@H]1N=C(c2ccc(Cl)cc2)c2c(sc(C)c2C)-n2c(C)nnc21
−TΔS (Bromodomain-containing protein 3, BD2 (BRD3, Homo sapiens, UniProt Q15059); binding, ITC; 25 °C, compound in cell, protein in syringe): 2.61 ± 0.09 kcal/mol

N[C@@H](Cc1ccccc1)C(=O)Nc1ccc2ccccc2c1
kcat (rat neuron-specific aminopeptidase; substrate; MW 110 kDa): 17.5 s⁻¹

Cc1cc(C)c2nc(C)cc(NCCc3ccccc3)c2c1
outward current density (CatSper channel complex (Homo sapiens, UniProt Q7RTX7+Q86XQ3+Q8NEC5+Q96P56); ion current, whole-cell patch clamp; human sperm; 10 µM, at +80 mV): 3.3 ± 2.9 pA/pF

O=c1nc(SCc2cc(F)cc(C(F)(F)F)c2)nc(SCc2csc3ccc(Cl)cc23)[nH]1
linear DNA (TOP2A; DNA cleavage; 31.25 µM, replicate 2): 4.03%

CCC1(O)CCCN(C(=O)c2ccc(-c3ccc(F)c(NC(=O)CCl)c3)cc2)C1 (stereo not drawn)
protein adduct (DNA dC->dU-editing enzyme APOBEC-3A (Homo sapiens, UniProt P31941); covalent modifier, intact protein mass spectrometry, refers to: adduct +26309 Da; 250 µM, 3 h, 10-fold molar excess): 81%

O=S(=O)(O)C1CCNCC1
normalised MST signal (Sodium- and chloride-dependent taurine transporter (SLC6A6, Homo sapiens, UniProt P31641, Y138A); binding, microscale thermophoresis; 1.95 µM, room temperature, with: 50 nM labelled protein; higher = more binding): -0.011

CCC(C)(NCCc1ccc(C(F)(F)F)cc1C(F)(F)F)c1cccc(NC2=CC(=O)N(C3CCC(=O)NC3=O)C2=O)c1 (stereo not drawn)
Dmax (ZBTB11/CRBN; protein degradation, degrader, HiBiT luminescence; MOLT-4): 53%

Nc1ccc(C(=O)O)cc1
current density (BEST1, with wild-type BEST1 (Homo sapiens, UniProt O76090, A10T); whole-cell patch clamp; HEK293 co-expressing WT and A10T mutant; concentration not given, membrane potential 20 mV): 5.97 pA/pF and 2.72 pA/pF and 4.63 pA/pF and 10.2 pA/pF and 6.04 pA/pF and 2.28 pA/pF

CN1CCC[C@H]1c1cccnc1
koff (Chrnd/Chrna1/Chrne (Mus musculus, UniProt P02716+P04756+P20782, G173E)): 1230 s⁻¹

COc1cccc2c(Nc3ccc4[nH]c(C(=O)N/N=C/c5ccc(SC)cc5)cc4c3)cc(C)nc12
activation (Nuclear receptor subfamily 1 group D member 1 (NR1D1, Homo sapiens, UniProt P20393); reporter gene, Gal4 hybrid reporter; 3 µM; relative to: vehicle): 0.81 fold

NS(=O)(=O)c1cnc(NC(=O)CC2CCCCC2)s1
Ki (Alpha-carbonic anhydrase (Enterococcus faecium, UniProt Q3XYE8); CO2 hydration, inhibitor, stopped-flow kinetics): 0.77 µM

O=C(COP(=O)(O)O)[C@@H](O)[C@H](O)[C@H](O)COP(=O)(O)O
minimum concentration, maximal activation (Pyruvate kinase PKM (PKM, Homo sapiens, UniProt P14618); pyruvate kinase activity, activator; MGC-803 cell lysate; with: AIM): 1620 ± 612 nM

[2H]c1cc(C)c(NC(=O)c2cnc(Nc3cc(N4CCCCC4)nc(C)n3)s2)c(Cl)c1
inhibition (Mast/stem cell growth factor receptor Kit (KIT, Homo sapiens, UniProt P10721, V654A); 0.01 µM): < 30%

c1ccc(-c2n[nH]cc2-c2ccnc3ccccc23)nc1
log2 fold change (Negative regulator of the PHO system (PHO85, Candida albicans, UniProt Q9HGY5); kinase binding, competitor, MIB/MS competition, refers to: PHO85; Candida albicans cell lysate; 1 µM; relative to: DMSO): 1.43

CC[C@H](C)[C@@H]1NC(=O)[C@H](C)NC(=O)[C@H]([C@@H](C)CC)NC(=O)[C@H](CCC(N)=O)NC(=O)[C@H](C)NC(=O)[C@H](CCCNC(=N)N)NC(=O)[C@H](C(C)C)NC(=O)[C@H](CC(C)C)NC(=O)[C@H](CCC(=O)O)NC(=O)[C@H](CCCNC(=N)N)NC(=O)CNC(=O)[C@@H](NC(=O)[C@H](CC(C)C)NC(=O)[C@H](CCCCN)NC(=O)[C@@H](NC(=O)[C@@H](NC(=O)[C@H](CCC(=O)O)NC(=O)[C@H](CCC(=O)O)NC(=O)[C@H](CCSC)NC(=O)[C@H](Cc2c[nH]c3ccccc23)NC(=O)[C@H](CO)NC(=O)[C@@H](N)CC(=O)O)C(C)C)[C@@H](C)CC)CSSC[C@@H]2NC(=O)[C@@H](NC(=O)[C@H](CCCCN)NC(=O)[C@H](CC(N)=O)NC(=O)[C@H](C)NC(=O)[C@H](CC(C)C)NC(=O)[C@H](C)NC(=O)[C@H](CO)NC(=O)[C@H](Cc3ccc(O)cc3)NC(=O)[C@H](CC(C)C)NC(=O)[C@H](CCC(N)=O)NC(=O)c3ccc(-c4c5ccc(=[N+](C)C)cc-5oc5cc(N(C)C)ccc45)c(C(=O)[O-])c3)CSSC[C@H](NC(=O)CNC(=O)[C@H](C(C)C)NC(=O)[C@H](Cc3c[nH]cn3)NC2=O)C(=O)N[C@@H]([C@@H](C)O)C(=O)N[C@@H](CCCCN)C(=O)N[C@@H](CCCNC(=N)N)C(=O)N[C@@H](CO)C(=O)N[C@@H](CC(C)C)C(=O)N[C@@H](C)C(=O)N[C@@H](CCCNC(=N)N)C(=O)N[C@@H](Cc2ccccc2)C(=O)N[C@H](C(=O)O)CSSC[C@@H](C(=O)NCC(=O)N[C@@H](CCSC)C(=O)N[C@@H](CO)C(=O)N[C@H](C(=O)N[C@@H](Cc2c[nH]c3ccccc23)C(=O)N[C@@H](CO)C(=O)O)[C@@H](C)O)NC1=O
koff fast phase (Relaxin receptor 1 (RXFP1, Homo sapiens, UniProt Q9HBX9, F76A/Y80A); NanoBRET dissociation; infinite dilution, with: 10 µM relaxin): 0.00921 s⁻¹

CO[C@H]1O[C@H](COS(=O)(=O)O)[C@@H](O[C@@H]2O[C@@H](C(=O)O)[C@@H](O[C@H]3O[C@H](COS(=O)(=O)O)[C@@H](O[C@@H]4O[C@H](C(=O)O)[C@@H](O[C@H]5O[C@H](COS(=O)(=O)O)[C@@H](O)[C@H](O)[C@H]5NS(=O)(=O)O)[C@H](O)[C@H]4O)[C@H](OS(=O)(=O)O)[C@H]3NS(=O)(=O)O)[C@H](O)[C@H]2OS(=O)(=O)O)[C@H](O)[C@H]1NS(=O)(=O)O
salt-independent binding energy (Beta-2-glycoprotein 1, domain V (APOH, Homo sapiens, UniProt P02749, V266L); ITC salt dependence): -3.8 kcal/mol

NCCCC(=O)O
z-scored log2 fold change (binding, equilibrium dialysis LC-MS; 5 µM, thermostabilized A2AR-BRIL construct; relative to: no-protein control, direction not given): 0.0204

Cc1nc(CSc2nc(SCc3ccc(C(C)C)cc3)nc(=O)[nH]2)cs1
linear DNA (TOP2A; DNA cleavage; 7.8 µM, replicate 2): 0%

NC(=O)c1ccc[n+]([C@@H]2O[C@H](COP(=O)([O-])O)[C@@H](O)[C@H]2O)c1
z-scored log2 fold change (binding, equilibrium dialysis LC-MS; 5 µM, thermostabilized A2AR-BRIL construct; relative to: no-protein control, direction not given): 0.0966

O=C1CCC(N2C(=O)C=C(Nc3cccc(-c4cn(CCc5ccc(C(F)(F)F)c(Cl)c5)nn4)c3)C2=O)C(=O)N1 (stereo not drawn)
Dmax (ZBTB11/CRBN; protein degradation, degrader, HiBiT luminescence; MOLT-4): 26%

O=C(O)CCC(=O)Nc1cccc2ccccc12
Kd (Ubiquitin carboxyl-terminal hydrolase 49, ZnF-UBD domain (USP49, Homo sapiens, UniProt Q70CQ1)): > 1000 µM

CCS(=O)(=O)N1CC(CC#N)(n2cc(-c3ncnc4[nH]ccc34)cn2)C1
change in binding constant (Alpha-1-acid glycoprotein 1 (ORM1, Homo sapiens, UniProt P02763); with: Fe3+): -15.2%

CC[C@@H]1[C@H](F)C(=O)N[C@@H]1COc1nccc2cc(C(N)=O)c(OC)cc12
inhibition (Interleukin-1 receptor-associated kinase 3 (IRAK3, Homo sapiens, UniProt Q9Y616); ATP-site probe binding, inhibitor, ActivX ATP probe profiling; THP-1 cell lysate; 0.04 mM, kinase domain site): -1.7%

N#Cc1ccc2c(CN3CCOCC3)cc(-c3ccc([C@@H]4CCC(=O)N4)cc3)nc2c1
FRET efficiency (Advanced glycosylation end product-specific receptor, with DIAPH1 (AGER, Homo sapiens, UniProt Q15109); acceptor photobleaching; HEK-293T expressing RAGE-eCFP; 5.0 µM, 60 min): 3.5 ± 0.2%

C=CC(=O)N1CCC(COCC(=O)N2CCN(c3nc(-c4cnc(N)nc4C(F)F)nc(N4CCOC[C@@H]4C)n3)CC2)CC1
remaining binding (PAK3; KINOMEscan; 1 µM): 83%

Nc1ncnc2c1ncn2[C@@H]1O[C@H](COP(=O)(O)CP(=O)(O)OP(=O)(O)O)[C@@H](O)[C@H]1O
calcium influx (P2X purinoceptor 1 (P2RX1, Homo sapiens, UniProt P51575, M214A); calcium influx; 100 nM; relative to: ionomycin response): 0.816% and 1.38% and 0.931% and 2.61%

CC(=O)Nc1ncc([N+](=O)[O-])s1
Hill slope (Glycogen synthase kinase-3 alpha (GSK3A, Homo sapiens, UniProt P49840); kinase activity, inhibitor, Z'-LYTE): 1.26

Oc1ccc(/C=C/c2cc(O)cc(O)c2)cc1
binding stoichiometry (O-methyltransferase (Sorghum bicolor, UniProt A0A1B6PFV1); ITC; concentration not given, with: MTA+): 0.73 ± 0.001

Repeated from above:
O=C(COP(=O)(O)O)[C@@H](O)[C@H](O)[C@H](O)COP(=O)(O)O
minimum concentration, maximal activation (Pyruvate kinase PKM (PKM, Homo sapiens, UniProt P14618); pyruvate kinase activity, activator; MGC-803 cell lysate; with: AIM): 1620 ± 612 nM

[2H]c1cc(C)c(NC(=O)c2cnc(Nc3cc(N4CCCCC4)nc(C)n3)s2)c(Cl)c1
inhibition (Mast/stem cell growth factor receptor Kit (KIT, Homo sapiens, UniProt P10721, V654A); 0.01 µM): < 30%
